# Published values collected from several papers.
# Lines come from different studies, so protocols differ. Numbers after ± are the reported error.
SMILES,assay,system,conditions,endpoint,result
CN1CC[C@@H](c2c(O)cc(O)c3c(=O)cc(-c4ccc(C(F)(F)F)cc4Cl)oc23)[C@@H]1CO,refers to: Anemia,relapsed or refractory haematological malignancies,"oral, dose not given, grade 3 to 4, all arms",patients with adverse event,17.5%
COc1ncccc1-c1cnn2ccc(N3CCN(C(=O)OC(C)C)CC3)nc12,,"rat, CCI cold allodynia model, plasma","oral, 3 mg/kg, 240 min",free drug concentration,7.8 nM
COS(C)(=O)=O,,"female Hsd:ICR (CD-1) mouse, bone marrow","oral, 40 mg/kg/day, positive control",PCE to total erythrocytes ratio,0.447
O=C(C1CCSCC1)N1CC(=O)N2CCc3ccccc3[C@@H]2C1,,"NMRI mouse, female, S. mansoni-infected, plasma","oral, 200 mg/kg",Cmax of (R)-enantiomer,3300 nM
COc1cc2c(Oc3ccc4[nH]c(C)cc4c3F)ccnc2cc1OCC1(N)CC1,,paediatric recurrent refractory sarcoma,12 mg,grade 1 or 2 abdominal distension,9.1%
CCc1ccc(CC/C=C/c2ccc3c(c2)C(=O)CC3)cc1,,"Sprague-Dawley rat, female","oral, 120 mg/kg/day, 14 days",Globulin,24 g/L
C[C@@H]1NC(=O)[C@H](CCCCNC(=O)CO/N=C/C(=O)NCCCC[C@@H]2NC(=O)[C@@H](Cc3ccccc3)NC(=O)[C@H](CC(=O)O)NC(=O)CNC(=O)[C@H](CCCNC(=N)N)NC2=O)NC(=O)CNC(=O)[C@@H]2CCCN2C(=O)[C@H](CCCCNC(=O)CO/N=C/C(=O)NCCCC[C@@H]2NC(=O)[C@@H](Cc3ccccc3)NC(=O)[C@H](CC(=O)O)NC(=O)CNC(=O)[C@H](CCCNC(=N)N)NC2=O)NC(=O)[C@H](CCCCNC(=O)[C@H](CCCCN)NC(=O)[C@H](Cc2ccccc2)NC(=O)CNC(=O)CN2CCCNCCNCCCNCC2)NC(=O)[C@H](CCCCNC(=O)CO/N=C/C(=O)NCCCC[C@@H]2NC(=O)[C@@H](Cc3ccccc3)NC(=O)[C@H](CC(=O)O)NC(=O)CNC(=O)[C@H](CCCNC(=N)N)NC2=O)NC(=O)CNC(=O)[C@@H]2CCCN2C(=O)[C@H](CCCCNC(=O)CO/N=C/C(=O)NCCCC[C@@H]2NC(=O)[C@@H](Cc3ccccc3)NC(=O)[C@H](CC(=O)O)NC(=O)CNC(=O)[C@H](CCCNC(=N)N)NC2=O)NC1=O [copper-64 labelled],PET imaging,"mouse, U-87 MG tumour xenograft, tumor","intravenous, 24 h",tissue uptake,1.45 ± 0.06 %ID/g
CCN1[C@@H](C(=O)NC23CCC(C(=O)O)(CC2)CC3)[C@H](c2cccc(Cl)c2F)[C@]2(C(=O)Nc3cc(Cl)ccc32)C12CCCCC2,,patients with advanced solid tumours,"oral, 150 mg",nausea/vomiting incidence,62.5%
N=C(CC(O)c1cc2c(F)cc(F)cc2c2cc(C(F)(F)F)ccc12)Nc1ccc(F)c(F)c1 (stereo not shown),,human blood,"2.5 ng/mL, 30 min",blood-to-plasma ratio,0.97 ± 0.03
CC(C)CC(=O)OC[C@H]1O[C@@](C#N)(c2ccc3c(N)ncnn23)[C@H](O)[C@@H]1O,,human plasma,0.9 to 90 µM,fraction bound,0.808
COC[C@@H](CC(C)C)NC(=O)c1ccc(C)c(C)c1,,"Hsd:ICR (CD-1) mouse, male, bone marrow","oral, 500 mg/kg, 24 h",PCE to total erythrocyte ratio,0.485
C=CC(=O)N1CC[C@H](n2nc(C#Cc3cc(OC)cc(OC)c3)c3c(N)ncnc32)C1,,patients with advanced solid tumours,"oral, dose not given, Hyperphosphatemia, any grade, QD, added: phosphate-binding therapy",adverse drug reaction incidence,100%
COc1ccc(C[C@@H]2NC(=O)[C@@H](CC(C)C)NC(=O)[C@H](C)NC(=O)[C@H](CC(C)C)NC(=O)[C@@H](CC(C)C)NC(=O)[C@H]3CCCN3C2=O)cc1,LC/MS,horizontal lipid bilayer,"10 µM, 1 h, room temperature, 1% DMSO in PBS",Papp,200 ± 100 ×10⁻⁶ cm/s

# For quick reference, copied from above:
SMILES,assay,system,conditions,endpoint,result
COC[C@@H](CC(C)C)NC(=O)c1ccc(C)c(C)c1,,"Hsd:ICR (CD-1) mouse, male, bone marrow","oral, 500 mg/kg, 24 h",PCE to total erythrocyte ratio,0.485
